Assay results gathered from unrelated publications.
± gives the spread as reported.
Ryanodine receptor 1: Ryanodine receptor 1 (Oncorhynchus mykiss, UniProt A0A8C7UX14)
CNR1: Cannabinoid receptor 1 (CNR1, Homo sapiens, UniProt P21554)

CSCC1NC(c2c[nH]c3c(N)ncnc23)[C@@H](O)[C@H]1O (stereo partly drawn)
coupling free energy (MTAP (Homo sapiens, UniProt Q13126); binding, thermodynamic cycle; with: phosphate): -2.6 kcal/mol

COc1cc2c(cc1OC)-c1c3c(cc4ccnc(c14)C2=O)OCO3
IC50 (Cholinesterase (BCHE, Equus caballus, UniProt P81908); enzyme activity, inhibitor, Ellman; up to 0.1 µg/mL): inactive

copper-phenanthroline
GABA current change (Gabrg2/GABRB2/Gabra1 (Rattus norvegicus, UniProt P18508+P47870+P62813, C260A/C282A/C312A/C319A/C341A/F313C/L258C); two-electrode voltage clamp; Xenopus oocytes; 100 µM with phenanthroline 200 µM, 2 min, after DTT, with: GABA 100 µM; baseline: initial response, vs Cys-less receptor): decreased

CCCC(C)Sc1nc2c([nH]1)c(=S)n(C)c(=O)n2C (stereo not drawn)
remaining activity (Androgen receptor (AR, Homo sapiens, UniProt P10275); reporter gene, antagonist, PSA-luciferase; HeLa-A6; 10 µM, 24 h, with: 5 nM dihydrotestosterone; baseline: maximal activity): 112%

CN(Cc1cnc2nc(N)nc(N)c2n1)c1ccc(C(=O)N[C@@H](CCC(=O)O)C(=O)O)cc1
rhodopsin P23H level (Rhodopsin (Rho, Mus musculus, UniProt P15409, P23H); immunostaining imaging; NIH3T3 (RHO P23H-GFP); concentration not given, with: MG-132 5 µM): no effect

COC1=C(OC)C(=O)C(C)=CC1=O
kcat (Type II NADH dehydrogenase (Plasmodium falciparum, UniProt Q8I302); enzyme activity, substrate; with: co-substrate 500 µM): 0.333 ± 0.005 s⁻¹

Cc1cc(=O)oc2c(F)c(OP(=O)(O)O)c(F)cc12
Km (PTPN11 (Homo sapiens, UniProt Q06124, S502P); phosphatase activity, substrate; 0.025 nM enzyme, pH 7.2, S502P mutant basal no peptide): 1.25 ± 0.09 mM

CC(C)[C@@H](CN1CCN(c2cccc(O)c2)[C@@H](C)C1)NC(=O)c1ccc(Oc2cccc(O)c2)cc1
Ke (OPRD1 (Homo sapiens, UniProt P41143); antagonist; CHO; with: DPDPE): 625 ± 120 nM

C[C@H]1CCCC(=O)CCC/C=C/c2cc(O)cc(O)c2C(=O)O1
Km (zhd101 (Clonostachys rosea, UniProt Q8NKB0, V153H); substrate, HPLC; 10 min, pH 5.5, 37 °C, 1% acetonitrile): 58.6 ± 2.05 mM

O=C(OCC1CCCN(CCCc2ccccc2)C1)c1ccccc1C(F)(F)F (stereo not drawn)
potency fold change (Neuronal acetylcholine receptor; alpha4/beta2 (Homo sapiens, UniProt P17787+P43681); concentration not given; baseline: amide analogue over parent scaffold): 2.1

CC[C@H](C)[C@H](NC(=O)[C@H](C)NC(=O)[C@H](CCC(=O)O)NC(C)=O)C(=O)N[C@H](C(=O)N[C@@H](CCCNC(=N)N)C(=O)N[C@H](C(=O)N[C@@H](CC(C)C)C(=O)N[C@@H](CCC(N)=O)C(=O)N[C@@H](CCC(N)=O)C(=O)N[C@@H](CC(C)C)C(=O)N[C@@H](CC(C)C)C(=O)N[C@@H](Cc1ccccc1)C(=O)N[C@H](C(=O)N[C@@H](Cc1c[nH]cn1)C(=O)N[C@@H](Cc1ccccc1)C(=O)N[C@@H](CCCNC(=N)N)C(=O)N[C@H](C(=O)NCC(N)=O)[C@@H](C)CC)[C@@H](C)CC)[C@@H](C)CC)[C@@H](C)CC
minimum DNA retardation concentration (HIV-1 integrase and DNA substrate; DNA binding, gel retardation; 2 h, 37 °C, with: radiolabelled oligonucleotide DNA): 37 µM

CCOc1ccccc1S(=O)(=O)N1CC(c2nc(-c3ccsc3)no2)C1
activity (Calcium-activated potassium channel subunit alpha-1, with beta-3 subunit (KCNMA1, Homo sapiens, UniProt Q12791); HEK293; 30 µM): inactive

Nc1ncnc2c1ncn2[C@@H]1O[C@H](CSCC[C@H](N)C(=O)O)[C@@H](O)[C@H]1O
concentration for full inhibition (bioB (Escherichia coli, UniProt P12996); enzyme activity, inhibitor; 30 min, 37 °C, 25 µM enzyme monomer, with: 100 µM S-adenosylmethionine, 200 µM dethiobiotin): 10.6 µM

O=C(Cc1ccccc1I)NC1CCOC1=O (stereo not drawn)
activation (rhlR (Pseudomonas aeruginosa, UniProt P54292); reporter gene, agonist; Escherichia coli reporter strain; 100 µM; baseline: BHL 900 µM): 70%

C=C(CC[C@@H](C)[C@H]1CC[C@H]2C3=C(C(=O)C[C@]12C)[C@@]1(C)CCC(=O)[C@@H](C)[C@@H]1CC3=O)[C@H](C)C(=O)O
induction (Peroxisome proliferator-activated receptor alpha (Rattus norvegicus, UniProt P37230); reporter gene, agonist; CHO-K1; 10 µM): 2.5

TVNKTESAY
translocated peptide (Antigen peptide transporter 1/Antigen peptide transporter 2 (Homo sapiens, UniProt Q03518+Q03519); substrate, radiolabelled peptide transport; peptide, LCL721, streptolysin O-permeabilised; concentration not given; baseline: input): 4 to 5%

O[C@H](CN1CC[C@H](CCOC(c2ccccc2)c2ccccc2)[C@@H](O)C1)c1ccc(F)cc1
Ki (Slc6a3 (Rattus norvegicus, UniProt P23977); dopamine uptake, inhibitor; rat striatum; with: [3H]dopamine): 0.00297 µM

N[C@@H](CCCCNP(=O)(O)O)C(=O)O
substrate hydrolysis (Phospholysine phosphohistidine inorganic pyrophosphate phosphatase (LHPP, Homo sapiens, UniProt Q9H008); enzyme activity; concentration not given, 90 min, pH 7.8, with: substrate 100 µM): 56.3%

Clc1ccc(-c2c(Cl)ccc(Cl)c2Cl)c(Cl)c1Cl
EC20 (Ryanodine receptor 1; [3H]ryanodine binding; rainbow trout, skeletal muscle microsomes): 18.6 µM

C[C@@H]1CN(c2ccc(F)cc2)C(=O)c2cc(COc3ccccn3)nn21
remaining activity (Grm5 (Rattus norvegicus, UniProt P31424); calcium signal, antagonist; 30 µM): 26.5%

DNRDGNVYYF
Hill coefficient (Serine endoprotease DegS (degS, Escherichia coli, UniProt P0AEE3, H198P/K243D); substrate; peptide; 23 °C, with: saturating OMP peptide): 1.2 ± 0.1

Clc1cc(-c2cc(Cl)c(Cl)c(Cl)c2Cl)c(Cl)c(Cl)c1Cl
EC20 (Ryanodine receptor 1; [3H]ryanodine binding; rainbow trout, skeletal muscle microsomes): 11.4 µM

NC(=O)C1(NC(=O)c2nn(Cc3ccc(F)cc3)c3ccccc23)CCCC1
Emax (CNR1; calcium mobilization, agonist; CHO-K1 expressing Gαq16; baseline: CP55,940 maximum): 89 ± 2%

COc1ccc2c3c([nH]c2c1)[C@H](CC(C)C)N1C(=O)[C@H](CCC(=O)OC(C)(C)C)NC(=O)[C@@H]1C3
brain (R)-[11C]verapamil concentration (Abcb1a (Mus musculus, UniProt P21447); inhibitor, PET; wild-type mice; i.v., 10 mg/kg, with: (R)-[11C]verapamil): increased

N.N.[Cl][Pt][Cl]
reduction in bound oligomers (Alpha-synuclein, oligomers (SNCA, Homo sapiens, UniProt P37840); oligomer-vesicle binding, FIDA; 5 µM, with: 150 nM oligomers, 50 µM DOPG liposomes; baseline: untreated): 15 to 20%

CCCCCn1nc(C(=O)NC(C)(C)c2cccc(C(N)=O)c2)c2ccccc21
Emax (CNR1; calcium mobilization, agonist; CHO-K1 expressing Gαq16; baseline: CP55,940 maximum): 30 ± 6%

CC(C)(C)OC(=O)c1ncn2c1[C@@H]1CCCN1C(=O)c1c(Br)cccc1-2
Emax (Gabrg2/Gabra6, with β3 subunit (Rattus norvegicus, UniProt P18508+P30191); GABA-induced chloride current, two-electrode voltage clamp; Xenopus oocytes; rat α6β3γ2 receptor, with: GABA EC3; baseline: GABA EC3 alone): 231 ± 13%

CC[C@H](C)[C@H](NC(=O)[C@H](C)NC(=O)[C@H](CO)NC(=O)[C@@H](NC(=O)[C@H](CCC(=O)O)NC(=O)[C@H](CCC(=O)O)NC(=O)[C@H](CCC(N)=O)NC(=O)[C@H](CCCCN)NC(=O)[C@H](CCCNC(=N)N)NC(=O)[C@@H](N)CCCCN)C(C)C)C(=O)N[C@H](C(=O)N[C@H](C(=O)N[C@@H](CCC(N)=O)C(=O)N[C@@H](CCCNC(=N)N)C(=O)N[C@@H](C)C(=O)N[C@@H](Cc1ccc(O)cc1)C(=O)N[C@@H](CCCNC(=N)N)C(=O)N[C@@H](CCCNC(=N)N)C(=O)N[C@@H](Cc1ccc(O)cc1)C(=O)N[C@@H](CC(C)C)C(=O)N[C@@H](CC(C)C)C(=O)N[C@@H](CCCCN)C(=O)N[C@@H](CCC(N)=O)C(=O)N[C@@H](CCCCN)C(=O)N[C@H](C(=O)N[C@@H](CCCCN)C(=O)N[C@@H](CCCCN)C(=O)O)C(C)C)[C@@H](C)CC)C(C)C
fluorescence emission increase (Calmodulin (CAM, Paramecium tetraurelia, UniProt P07463); 3 to 1 µM, pH 7.4, 22 °C, apo CaM residues 1-148; baseline: peptide alone): 13%

COC1C2OP(=O)(O)OCC3OC(n4cnc5c(N)ncnc54)C(O)C3OP(=O)(O)OCC2OC1n1cnc2c(N)ncnc21 (stereo not drawn)
degradation rate (gdpP, residues 84-659 (Bacillus subtilis, UniProt P37484); substrate, HPLC; 100 µM, 37 °C, upper limit if undegraded 24 h, with: enzyme 1 µM): 0.14 ± 0.01 mol/min/mol enzyme

C/C=C1/CN2[C@H]3C[C@@H]1[C@@H](CO)[C@@H]2Cc1c3n(C)c2ccccc12
ED50 (RELA (Homo sapiens, UniProt Q04206); DNA binding, inhibitor, ELISA; HeLa nuclear extract): > 20 µM

Repeated from above:
N[C@@H](CCCCNP(=O)(O)O)C(=O)O
substrate hydrolysis (Phospholysine phosphohistidine inorganic pyrophosphate phosphatase (LHPP, Homo sapiens, UniProt Q9H008); enzyme activity; concentration not given, 90 min, pH 7.8, with: substrate 100 µM): 56.3%

Clc1ccc(-c2c(Cl)ccc(Cl)c2Cl)c(Cl)c1Cl
EC20 (Ryanodine receptor 1; [3H]ryanodine binding; rainbow trout, skeletal muscle microsomes): 18.6 µM
